Measured values pooled from the literature.
Lines come from different studies, so protocols differ. Numbers after ± are the reported error.

Under platelet aggregation, `Cn1cnnc1Sc1c2c(c(C#N)c3nc4ccccc4n13)CCCC2` is recorded as “no effect” (Ero1α/β-null mouse platelets; 2.5 µM, with: thrombin 0.015 U/mL).
With `O=C(N1CCCC1)n1cc(-c2ccc(-c3ccccc3)cc2)nn1` the SILAC ratio was 1.18 ± 0.13 (mouse T-cells; N-terminal labeled proteins, N-terminal enrichment proteomics, measured: ARHGEF2; 1 nM, 6 h; relative to: DMSO).
`CC(=O)OC[C@H]1O[C@@H](Sc2sc(C(=O)c3ccc(C)cc3)c(N)c2-c2nc3ccccc3s2)[C@H](OC(C)=O)[C@@H](OC(C)=O)[C@@H]1OC(C)=O` has a growth of 48.2% (IGROV-1; SRB; 10 µM, 48 h; relative to: untreated).
For `CCNS(=O)(=O)c1ccc(COc2ccc3nc4ccc(=O)cc-4oc3c2)cc1`, “SNAIL1 protein stabilization” read “inhibited” (BT-549; DDR2 signalling, Western blot; 1 µM, 6 h, with: collagen I 2 mg/mL).
The resistance factor of `CCCC(CCC)C(=O)[O][Pt]([NH2])([NH2])([Cl])([Cl])[O]C(=O)C(Cl)Cl` is reported as 1.2 (C13 and 2008; cytotoxicity, MTT; relative to: IC50 C13 over IC50 2008).
`CCC12CCc3c(c4ccccc4n3C)CCN(CC3OC31)C2` (stereo not drawn): “HO-1 protein level” 8.69 fold (BV-2; western blot; 25 µM, with: LPS; relative to: LPS alone).
Under efferocytosis, `Cc1ccc(C)c2sc(NC(=O)C3CCN(S(=O)(=O)c4ccc(F)cc4)CC3)nc12` is recorded as “increased” (wild-type mouse BMDM; flow cytometry; 10 µM, 6 h pretreatment, with: apoptotic Jurkat cells 45 min; relative to: vehicle).
`COc1ccc([C@@H]2CC(=O)c3c(O)cc(O[C@@H]4O[C@H](CO[C@@H]5O[C@@H](C)[C@H](O)[C@@H](O)[C@H]5O)[C@@H](O)[C@H](O)[C@H]4O)cc3O2)cc1O` has a viability of 86.4% (A549; cell growth or viability, MTS; 50 µg/mL, 24 h).
`CC(C)Cc1ccc(C(C)C(=O)[O][Pt]([NH2])([NH2])([Cl])([Cl])[O]C(=O)C(Cl)Cl)cc1` (stereo not drawn): “mean IC50 ratio” about 31 (six human cancer cell lines; MTT; relative to: cisplatin over compound).
`COc1ccc(NC(=O)CCc2nc3cc(Cl)ccc3[nH]c2=O)cc1` has a BAX level of 4.34 fold (unspecified cells; concentration not given; relative to: untreated control).
`CCCCCCCCCCCC(=O)OC[C@H]1O[C@@H](n2cnc(N)nc2=O)C[C@@H]1OC(=O)CCCCCCCCCCC`: “lowest concentration reducing viability” over 125 nM (HEL; CyQuant; 72 h).
The growth percent of `COc1cc(CNC(=O)C[C@H](C)CCC=C(C)C)ccc1OCc1cn(-c2cccc(C(F)(F)F)c2)nn1` is reported as 89.8% (RPMI-8226 leukaemia cells; SRB; 10 µM, 48 h).
`COc1ccc(C2=Nn3c(NN=C4C(=O)N(C)c5ccc(Br)cc54)nnc3SC2)cc1` has an inhibition of 18% (SF-539; cell growth or viability, SRB; 10 µM).
With `CCNC(=S)N/N=C(\C)c1ccccn1` the inhibition was 63.6% (Vero; cell growth or viability, SRB; 100 µg/mL, 48 h).
For `C#CCCCCNC(=O)c1ccc(N(C(=O)C=C)c2ccc(Br)cc2)cc1`, “number of hyperreactive proteins” read 447 proteins (H460 cell lysate; MS-ABPP; 100 µM; reactivity ratio below 2).
For `COc1cc(CNC(=O)C[C@H](C)CCC=C(C)C)ccc1OCc1cn(-c2ccc(Br)cc2)nn1`, the growth percent was 63.4% (U-251 CNS cancer cells; SRB; 10 µM, 48 h).
`C=C(CC)C(=O)c1ccc(OCC(=O)NCCNC(=O)COc2ccc(C(=O)C(=C)CC)c(Cl)c2Cl)c(Cl)c1Cl` has an apoptosis increase of about 4 fold (A549/DDP cisplatin-resistant; 2.0 µM, with: cisplatin 2 µM; relative to: compound alone corrected).
`CC/C=C\C/C=C\C/C=C\C/C=C\C/C=C\C/C=C\CCC(=O)Nc1ccn(C2OC(CO)C(O)C2(F)F)c(=O)n1` (stereo not drawn) has a GI50 of 17 µM (Hs-578T; cell growth or viability, SRB).
For `O=C1NCC(Cc2ccccc2)N(CC2CCCN2CC(CC2CCCCC2)N2CC(Cc3ccc(O)cc3)N(CCc3ccccc3)C(=O)C2=O)C1=O` (stereo not drawn), “mitochondrial membrane potential” read “decreased” (WM 266-4; concentration not given, 4 h).
For `COc1ccc(NC(=O)COc2ccc(/C=C/C(C)=N/O)cc2OC)cc1`, “TNF-α expressing cells” read 41.4% (SH-SY5Y; flow cytometry; 2.5 µM, with: amyloid beta 10 µM).
`CC1(C)C(=O)N=C2C1=C(O)C(=O)c1ccccc12` — result for “effective single dose”: 5 µM (HEK-293T; H4K20me1 depletion, inhibitor, western blot; sustained 3 days).
`COC(=O)c1ccccc1-c1c2ccc(=O)cc-2oc2cc(OCCCCCCCCCCC[P+](c3ccccc3)(c3ccccc3)c3ccccc3)ccc12` has a fluorescence ratio of 1.01 (HeLa cells; confocal microscopy; mitochondria; 100 nM; relative to: MitoTracker Deep Red).
For `CN1CCN(C(=O)N(CCCCCCC(=O)NO)c2ccc(-c3ccc4cnn(C)c4c3)cc2)CC1`, protein level read “increased” (MM1.S; immunoblot, measured: DACT3; 300 nM, 24 h).
`COc1cc(CNC(=O)C[C@H](C)CCC=C(C)C)ccc1OCc1cn(-c2cccc([N+](=O)[O-])c2)nn1` gave a growth percent of 73.3% (RPMI-8226 leukaemia cells; SRB; 10 µM, 48 h).
`O=Cc1c(O)ccc2ccccc12`: “log2 fold change” -3.45 (HUVEC; RNA sequencing, measured: MCM4; 75 µM, 24 h; relative to: DMSO).
`COc1cc(CNC(=O)C[C@H](C)CCC=C(C)C)ccc1OCc1cn(-c2ccc(C#N)cc2)nn1` has a growth percent of 83.9% (U-251 CNS cancer cells; SRB; 10 µM, 48 h).
`C(=C/c1ccccc1)/c1ccccc1`: “lowest effective concentration” 10 µM (CCRF-CEM; cell proliferation, CellTiter-Glo; 24 h; relative to: vehicle).
The growth percent of `COc1cc(CNC(=O)C[C@H](C)CCC=C(C)C)ccc1OCc1cn(-c2cccc(Cl)c2)nn1` is reported as 103% (U-251 CNS cancer cells; SRB; 10 µM, 48 h).
`CC(=O)OC[C@H]1O[C@@H](Sc2sc(C(=O)c3ccc(Br)cc3)c(N)c2-c2nc3ccccc3s2)[C@H](OC(C)=O)[C@@H](OC(C)=O)[C@@H]1OC(C)=O` gave a growth of 45.6% (IGROV-1; SRB; 10 µM, 48 h; relative to: untreated).
`CC[C@H](C)[C@H](NC(=O)[C@H](Cc1c[nH]cn1)NC(=O)[C@H](Cc1ccccc1)NC(=O)[C@@H](NC(=O)[C@H](C)NC(=O)[C@H](CC(N)=O)NC(=O)[C@H](Cc1c[nH]c2ccccc12)NC(=O)[C@@H](NC(=O)CNC(=O)CNC(=O)[C@H](CCCNC(=N)N)NC(=O)[C@H](CCCNC(=N)N)NC(=O)[C@H](CCCNC(=N)N)NC(=O)[C@H](CCC(N)=O)NC(=O)[C@H](CCCNC(=N)N)NC(=O)[C@H](CCCNC(=N)N)NC(=O)[C@H](CCCCN)NC(=O)[C@H](CCCCN)NC(=O)[C@H](CCCNC(=N)N)NC(=O)CNC(=O)[C@@H](N)Cc1ccc(O)cc1)C(C)C)[C@@H](C)O)C(=O)N[C@@H](Cc1c[nH]c2ccccc12)C(=O)N[C@@H](Cc1c[nH]cn1)C(=O)N[C@@H](CC(=O)O)C(N)=O` — result for “cells with small Htt103Q aggregates”: “decreased” (HeLa expressing CFP-Htt103Q; 10 µM).
For `O=[N+]([O-])[O-].[NH3+][Pt-2]1([NH3+])[O]C(C(F)(F)F)=CC(c2ccccc2)=[O+]1` (stereo not drawn), the mean growth was 64.5% (NCI-60 CNS cancer lines; SRB; 10 µM, 48 h; relative to: untreated).
With `N#Cc1cccc(-c2ccc(=O)n(Cc3cccc(-c4ncc(OCC5CCN(CC(=O)N6CCN(c7ccc8c(c7)C(=O)N(C7CCC(=O)NC7=O)C8=O)CC6)CC5)cn4)c3)n2)c1` (stereo not drawn) the apoptotic cells was 68% (EBC-1; annexin V flow cytometry; 100 nM, 48 h).
For `O=C(CCCCC1SCC2NC(=O)NC21)NCCCCC(CN1CCCC1CN1C(=O)C(=O)NCC1Cc1ccccc1)N1CC(Cc2ccc(O)cc2)N(CCc2ccccc2)C(=O)C1=O` (stereo not drawn), “lamin A/C cleavage” read “no effect” (WM 266-4; western blot, measured: cleaved lamin A/C; 100 µM, 24 h).
For `COc1cc(CNC(=O)C[C@H](C)CCC=C(C)C)ccc1OCc1cn(-c2ccccc2F)nn1`, the growth percent was 81.8% (RPMI-8226 leukaemia cells; SRB; 10 µM, 48 h).
The GI50 of `CC(=C(c1ccc(O)cc1)c1ccc(Cl)cc1)c1ccc(Cl)cc1` is reported as 0.8 µM (SK-MEL-2; cell growth or viability, SRB).
For `CC(=O)N[C@H](C(=O)N[C@H](C(=O)N[C@@H](CCCNC(=N)N)C(=O)N1Cc2ccccc2C[C@H]1C(=O)N[C@@H](Cc1ccccc1)C(N)=O)C1CCCCC1)C(C)C`, the cytokine level was under 0.3 pg/mL (MBP-specific BC-3 T cells; Bio-Plex multiplex, measured: IL-5; 200 µg/mL, 24 h, with: MBP87-99 antigen).
For `O=C1Nc2ccc(F)cc2C1=Cc1c(Cl)[nH]c2c1ccc1ccccc12`, the TGI was 11 µM (melanoma subpanel of NCI-60; 48 h).
For `O=C(N[C@@H](Cc1coc2ccccc12)B(O)O)[C@@H]1C[C@H]2CC[C@@H]1O2`, the caspase-3/7 activity was over 3.5 fold (MM1.S; Caspase-Glo; concentration not given, 72 h).
For `CN1CCCNC(=O)c2cccc(c2)C(=O)NCCCN(C)CCCNc2cccc3c2C(=O)c2cccc(c2C3=O)NCCC1`, “downregulated Wnt/β-catenin pathway genes” read 9 genes (SAS; RNA-Seq; 5 µM, 6 h).
For `CN1CCC2(CC1)C/C(=N\NC(=O)Nc1ccccc1)c1ccccc1O2`, the apoptotic cells was 14.5% (MCF7; annexin V-FITC/PI; concentration not given, 24 h, Late apoptosis).
`O=C1c2c(O)cc3oc4cc(O)c(O)cc4c3c2OC1Cc1ccc(O)cc1` (stereo not drawn) gave a viability of 90.1% (L02; MTT; 10 µM, 2 h, with: H2O2 100 µM; relative to: untreated).
For `COc1ccc(OC)c(Nc2nc(NCCCO)c3ccccc3n2)c1`, “decrease in foci-positive cells” read 2 to 2.5 fold (BCR-ABL1+ BRCA1-deficient 32Dcl3; measured: GFP-RAD52 foci; 2.5 µM, with: cisplatin; relative to: cisplatin alone).
The GI50 of `CCC(=C(c1ccc(Cl)cc1)c1ccc(OCCCN(C)C)cc1)c1ccc(OC)cc1` is reported as 4.08 µM (SF-539; cell growth or viability, SRB).
`COc1cc(CNC(=O)C[C@H](C)CCC=C(C)C)ccc1OCc1cn(-c2ccccc2)nn1` has a growth percent of 93.8% (U-251 CNS cancer cells; SRB; 10 µM, 48 h).
`COc1cc(C(=O)c2[nH]c(N)nc2-c2cccs2)cc(OC)c1OC` has a dead cells of 42% (HeLa cells; propidium iodide staining; 75 nM, 24 h).
The Pearson coefficient of `COC(=O)c1ccccc1-c1c2ccc(=O)cc-2oc2cc(OCCCCC[P+](c3ccc(C)cc3)(c3ccc(C)cc3)c3ccc(C)cc3)ccc12` is reported as 0.856 ± 0.021 (HeLa cells; confocal microscopy; with: MitoTracker Deep Red).
`C[N+]1(CC(=O)OC2CCCCCCCCCCC2)CCCCC1` — result for “PSA protein level”: “inhibited” (LNCaP expressing AR-V7; inhibitor, Western blot; 10 µM, 24 h).
`COc1cc(CNC(=O)C[C@H](C)CCC=C(C)C)ccc1OCc1cn(-c2ccc(Cl)c(Cl)c2)nn1` gave a growth percent of 48.2% (U-251 CNS cancer cells; SRB; 10 µM, 48 h).

A few entries again:
For `CN1CCCNC(=O)c2cccc(c2)C(=O)NCCCN(C)CCCNc2cccc3c2C(=O)c2cccc(c2C3=O)NCCC1`, “downregulated Wnt/β-catenin pathway genes” read 9 genes (SAS; RNA-Seq; 5 µM, 6 h).
For `COc1cc(CNC(=O)C[C@H](C)CCC=C(C)C)ccc1OCc1cn(-c2ccc(Br)cc2)nn1`, the growth percent was 63.4% (U-251 CNS cancer cells; SRB; 10 µM, 48 h).
For `O=C1Nc2ccc(F)cc2C1=Cc1c(Cl)[nH]c2c1ccc1ccccc12`, the TGI was 11 µM (melanoma subpanel of NCI-60; 48 h).
`COc1cc(CNC(=O)C[C@H](C)CCC=C(C)C)ccc1OCc1cn(-c2cccc([N+](=O)[O-])c2)nn1` gave a growth percent of 73.3% (RPMI-8226 leukaemia cells; SRB; 10 µM, 48 h).
`COc1ccc([C@@H]2CC(=O)c3c(O)cc(O[C@@H]4O[C@H](CO[C@@H]5O[C@@H](C)[C@H](O)[C@@H](O)[C@H]5O)[C@@H](O)[C@H](O)[C@H]4O)cc3O2)cc1O` has a viability of 86.4% (A549; cell growth or viability, MTS; 50 µg/mL, 24 h).
